Assay results from different studies.
Every numbered part comes from another study and shows a few of its results, in no order. Several values in a cell are separate wells, animals, samples, runs or records.
UniProt Q8TBX8, sequence (whole entry, looked up): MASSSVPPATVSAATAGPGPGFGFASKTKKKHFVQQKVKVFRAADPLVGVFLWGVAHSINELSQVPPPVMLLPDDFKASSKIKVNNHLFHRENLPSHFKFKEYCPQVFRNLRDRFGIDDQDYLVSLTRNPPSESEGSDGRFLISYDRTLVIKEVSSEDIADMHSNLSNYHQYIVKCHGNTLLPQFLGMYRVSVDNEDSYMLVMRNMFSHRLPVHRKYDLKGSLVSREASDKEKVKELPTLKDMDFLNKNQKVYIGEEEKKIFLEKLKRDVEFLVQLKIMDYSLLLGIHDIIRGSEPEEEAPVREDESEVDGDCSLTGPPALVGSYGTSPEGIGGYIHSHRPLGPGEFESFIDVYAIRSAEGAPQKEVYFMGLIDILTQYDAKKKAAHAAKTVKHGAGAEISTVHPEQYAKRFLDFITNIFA
UniProt P10721, sequence (whole entry, unmodified, looked up): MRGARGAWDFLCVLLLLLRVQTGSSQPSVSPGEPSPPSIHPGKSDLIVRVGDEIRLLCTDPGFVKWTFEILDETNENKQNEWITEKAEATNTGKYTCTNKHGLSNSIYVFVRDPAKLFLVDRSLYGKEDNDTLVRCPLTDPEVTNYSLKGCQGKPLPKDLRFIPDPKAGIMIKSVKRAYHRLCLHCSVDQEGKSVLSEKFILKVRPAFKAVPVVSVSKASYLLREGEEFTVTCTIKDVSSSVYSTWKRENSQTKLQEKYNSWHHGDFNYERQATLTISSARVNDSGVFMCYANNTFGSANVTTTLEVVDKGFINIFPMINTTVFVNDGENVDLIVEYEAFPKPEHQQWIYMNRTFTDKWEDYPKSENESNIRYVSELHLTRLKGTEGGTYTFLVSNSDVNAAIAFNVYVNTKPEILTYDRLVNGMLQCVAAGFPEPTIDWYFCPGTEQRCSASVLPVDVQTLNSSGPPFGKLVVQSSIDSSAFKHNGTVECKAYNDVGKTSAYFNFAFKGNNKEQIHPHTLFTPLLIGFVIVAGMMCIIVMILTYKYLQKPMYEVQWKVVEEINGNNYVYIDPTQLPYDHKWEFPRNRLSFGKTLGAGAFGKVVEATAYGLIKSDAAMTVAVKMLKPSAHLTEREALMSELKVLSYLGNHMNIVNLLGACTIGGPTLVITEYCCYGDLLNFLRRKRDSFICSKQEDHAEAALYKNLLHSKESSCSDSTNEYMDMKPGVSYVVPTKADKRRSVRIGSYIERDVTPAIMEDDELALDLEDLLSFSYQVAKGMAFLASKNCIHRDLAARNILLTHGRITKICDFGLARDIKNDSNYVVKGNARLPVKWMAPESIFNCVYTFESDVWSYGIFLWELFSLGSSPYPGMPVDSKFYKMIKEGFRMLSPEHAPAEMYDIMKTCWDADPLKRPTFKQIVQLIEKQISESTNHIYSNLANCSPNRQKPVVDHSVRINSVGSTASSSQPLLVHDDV
UniProt O43781, sequence (whole entry, looked up): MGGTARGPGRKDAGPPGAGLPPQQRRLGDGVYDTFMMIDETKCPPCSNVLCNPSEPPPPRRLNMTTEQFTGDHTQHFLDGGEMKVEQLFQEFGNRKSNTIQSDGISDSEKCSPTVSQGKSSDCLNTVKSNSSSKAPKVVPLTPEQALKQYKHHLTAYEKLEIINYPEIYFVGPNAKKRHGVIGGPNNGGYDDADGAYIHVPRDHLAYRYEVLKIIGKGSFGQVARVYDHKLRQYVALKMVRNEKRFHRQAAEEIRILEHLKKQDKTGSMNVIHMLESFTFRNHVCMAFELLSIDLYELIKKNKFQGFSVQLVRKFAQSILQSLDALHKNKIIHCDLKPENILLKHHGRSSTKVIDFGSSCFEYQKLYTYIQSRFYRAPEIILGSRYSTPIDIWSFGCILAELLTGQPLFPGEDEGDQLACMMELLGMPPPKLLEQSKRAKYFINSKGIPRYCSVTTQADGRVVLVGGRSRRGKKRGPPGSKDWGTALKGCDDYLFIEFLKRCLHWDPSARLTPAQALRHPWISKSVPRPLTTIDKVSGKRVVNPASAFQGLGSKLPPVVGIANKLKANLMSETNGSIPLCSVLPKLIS
UniProt Q9UK32, sequence (whole entry, looked up): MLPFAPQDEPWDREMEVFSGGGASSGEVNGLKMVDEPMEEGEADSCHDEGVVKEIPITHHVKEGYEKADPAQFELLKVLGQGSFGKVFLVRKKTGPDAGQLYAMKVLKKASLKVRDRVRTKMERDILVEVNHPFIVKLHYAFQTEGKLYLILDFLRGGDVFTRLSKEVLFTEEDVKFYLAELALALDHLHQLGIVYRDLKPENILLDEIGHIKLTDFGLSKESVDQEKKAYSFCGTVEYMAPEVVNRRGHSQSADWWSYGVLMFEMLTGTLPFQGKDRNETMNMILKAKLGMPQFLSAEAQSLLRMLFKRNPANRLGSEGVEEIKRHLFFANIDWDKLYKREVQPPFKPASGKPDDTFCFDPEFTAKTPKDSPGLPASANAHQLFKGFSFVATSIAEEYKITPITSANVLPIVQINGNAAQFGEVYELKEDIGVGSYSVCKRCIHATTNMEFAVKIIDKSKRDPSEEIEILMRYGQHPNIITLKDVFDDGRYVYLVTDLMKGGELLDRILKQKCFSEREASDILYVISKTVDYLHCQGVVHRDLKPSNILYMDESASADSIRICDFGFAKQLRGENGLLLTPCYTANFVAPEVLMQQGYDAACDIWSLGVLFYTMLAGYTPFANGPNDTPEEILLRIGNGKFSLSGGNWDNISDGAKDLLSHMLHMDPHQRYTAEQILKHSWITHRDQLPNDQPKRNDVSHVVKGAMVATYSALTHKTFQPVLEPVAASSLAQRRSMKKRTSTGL
UniProt Q9P2K8, sequence (whole entry, unmodified, looked up): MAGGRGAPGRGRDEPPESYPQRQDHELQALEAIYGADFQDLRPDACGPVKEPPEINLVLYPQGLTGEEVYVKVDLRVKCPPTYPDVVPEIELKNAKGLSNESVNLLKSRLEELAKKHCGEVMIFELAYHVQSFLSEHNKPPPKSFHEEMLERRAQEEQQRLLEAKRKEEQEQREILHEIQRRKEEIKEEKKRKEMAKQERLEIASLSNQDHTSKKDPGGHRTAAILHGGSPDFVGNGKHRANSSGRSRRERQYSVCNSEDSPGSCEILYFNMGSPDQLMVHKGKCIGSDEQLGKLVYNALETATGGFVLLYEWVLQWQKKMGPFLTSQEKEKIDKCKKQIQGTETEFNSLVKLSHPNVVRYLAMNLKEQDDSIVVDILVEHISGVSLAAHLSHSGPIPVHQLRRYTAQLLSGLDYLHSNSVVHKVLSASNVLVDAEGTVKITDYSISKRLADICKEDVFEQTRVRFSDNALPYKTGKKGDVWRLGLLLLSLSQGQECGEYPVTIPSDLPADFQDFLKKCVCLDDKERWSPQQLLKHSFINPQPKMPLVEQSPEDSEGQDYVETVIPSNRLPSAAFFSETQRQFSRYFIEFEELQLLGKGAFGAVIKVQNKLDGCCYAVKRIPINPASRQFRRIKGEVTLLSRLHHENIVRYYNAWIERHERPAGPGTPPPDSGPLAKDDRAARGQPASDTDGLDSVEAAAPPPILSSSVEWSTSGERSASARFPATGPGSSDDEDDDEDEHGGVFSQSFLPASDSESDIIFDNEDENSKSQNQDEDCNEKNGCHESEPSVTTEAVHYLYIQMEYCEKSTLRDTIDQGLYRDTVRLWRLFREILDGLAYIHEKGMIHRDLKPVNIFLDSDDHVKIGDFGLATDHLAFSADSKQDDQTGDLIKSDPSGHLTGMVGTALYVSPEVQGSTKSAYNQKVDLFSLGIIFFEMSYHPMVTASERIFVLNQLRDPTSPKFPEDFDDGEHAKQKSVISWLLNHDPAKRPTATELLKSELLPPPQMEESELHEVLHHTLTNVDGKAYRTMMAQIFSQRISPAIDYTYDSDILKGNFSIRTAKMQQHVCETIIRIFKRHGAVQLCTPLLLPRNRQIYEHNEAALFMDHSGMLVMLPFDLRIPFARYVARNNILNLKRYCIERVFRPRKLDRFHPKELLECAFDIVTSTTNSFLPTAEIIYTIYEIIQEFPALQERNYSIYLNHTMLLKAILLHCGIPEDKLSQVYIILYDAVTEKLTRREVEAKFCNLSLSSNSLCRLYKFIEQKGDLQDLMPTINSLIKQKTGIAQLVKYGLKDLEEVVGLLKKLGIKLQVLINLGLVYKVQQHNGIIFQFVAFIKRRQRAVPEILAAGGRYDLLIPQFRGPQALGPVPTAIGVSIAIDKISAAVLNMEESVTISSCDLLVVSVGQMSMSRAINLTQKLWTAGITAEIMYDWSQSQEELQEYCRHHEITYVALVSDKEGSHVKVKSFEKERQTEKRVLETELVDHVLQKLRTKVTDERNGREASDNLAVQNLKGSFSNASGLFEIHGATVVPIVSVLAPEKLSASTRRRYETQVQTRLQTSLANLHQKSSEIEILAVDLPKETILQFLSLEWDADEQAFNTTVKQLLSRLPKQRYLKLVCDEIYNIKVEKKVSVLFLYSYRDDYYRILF
UniProt Q00534, sequence (whole entry, looked up): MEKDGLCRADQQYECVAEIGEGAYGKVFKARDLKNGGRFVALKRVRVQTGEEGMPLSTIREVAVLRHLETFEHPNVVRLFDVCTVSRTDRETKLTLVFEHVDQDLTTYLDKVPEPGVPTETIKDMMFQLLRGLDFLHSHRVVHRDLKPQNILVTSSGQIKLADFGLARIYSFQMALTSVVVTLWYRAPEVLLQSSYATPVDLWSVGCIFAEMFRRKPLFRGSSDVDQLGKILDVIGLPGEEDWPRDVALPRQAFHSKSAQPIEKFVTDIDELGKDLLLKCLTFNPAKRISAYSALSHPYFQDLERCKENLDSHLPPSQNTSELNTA
UniProt Q96PF2, sequence (whole entry, looked up): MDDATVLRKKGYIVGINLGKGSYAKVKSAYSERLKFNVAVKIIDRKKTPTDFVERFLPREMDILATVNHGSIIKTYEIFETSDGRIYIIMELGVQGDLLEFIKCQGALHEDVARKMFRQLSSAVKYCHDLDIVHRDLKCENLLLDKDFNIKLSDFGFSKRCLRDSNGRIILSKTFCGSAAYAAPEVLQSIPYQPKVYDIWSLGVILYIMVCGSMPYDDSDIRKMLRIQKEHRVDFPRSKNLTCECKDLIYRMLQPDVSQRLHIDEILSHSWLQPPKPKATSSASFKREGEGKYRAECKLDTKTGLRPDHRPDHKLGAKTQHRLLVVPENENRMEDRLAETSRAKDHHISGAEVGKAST

Set 1
Structure (SMILES): CC(C)n1cnc2c(Nc3cccc(Cl)c3)nc(NCCO)nc21
Observed: enzyme activity
Mode: inhibitor
Concentration: 0.5 µM
Relative to: control
STK17A (Homo sapiens, UniProt Q9UEE5) — remaining activity: 96.8%.
The remaining activity was 95.9% (CAMK2B (Homo sapiens, UniProt Q13554)).
For Cyclin-dependent kinase 6, with cyclin D3 (CDK6, Homo sapiens, UniProt Q00534): remaining activity read 89.7%.
MAPKAPK3 (Homo sapiens, UniProt Q16644) — remaining activity: 91%.
The remaining activity was 74.8% (RPS6KA6 (Homo sapiens, UniProt Q9UK32)).
The remaining activity was 82% (EPHB4 (Homo sapiens, UniProt P54760)).
HIPK4 (Homo sapiens, UniProt Q8NE63) — remaining activity: 94.6%.
AXL (Homo sapiens, UniProt P30530) — remaining activity: 91.3%.
ABL1 (Homo sapiens, UniProt P00519) — remaining activity: 73.3%.
The remaining activity was 97.2% (DYRK3 (Homo sapiens, UniProt O43781)).
WNK3 (Homo sapiens, UniProt Q9BYP7) — remaining activity: 77.7%.
The remaining activity was 96.8% (PDPK1 (Homo sapiens, UniProt O15530)).
For HIPK2 (Homo sapiens, UniProt Q9H2X6): remaining activity read 93.3%.
For MAP4K4 (Homo sapiens, UniProt O95819): remaining activity read 75.5%.
TSSK2 (Homo sapiens, UniProt Q96PF2) — remaining activity: 107%.
It gave 91.2% for remaining activity (BLK (Homo sapiens, UniProt P51451)).

Set 2
SMILES: CCOCCn1cc(C(=O)Nc2ccc(-n3nc(-c4cccnc4)cc3C(F)(F)F)cn2)ccc1=O
Observed: cell-free assay
Method: competition with immobilised ligand
Concentration: 1 µM
The remaining binding was 84% (CDKL3 (Homo sapiens, UniProt Q8IVW4)).
The remaining binding was 100% (MAP3K12 (Homo sapiens, UniProt Q12852)).
For PIP4K2C (Homo sapiens, UniProt Q8TBX8): remaining binding read 100%.
It gave 100% for remaining binding (TLK2 (Homo sapiens, UniProt Q86UE8)).
It gave 100% for remaining binding (NTRK3 (Homo sapiens, UniProt Q16288)).
The remaining binding was 100% (PLK4 (Homo sapiens, UniProt O00444)).
The remaining binding was 73% (ALK (Homo sapiens, UniProt Q9UM73, L1196M)).
For MYLK3 (Homo sapiens, UniProt Q32MK0): remaining binding read 97%.
FLT3 (Homo sapiens, UniProt P36888, F691L/ITD) — remaining binding: 56%.
CAMK1D (Homo sapiens, UniProt Q8IU85) — remaining binding: 100%.
For MAP3K20 (Homo sapiens, UniProt Q9NYL2): remaining binding read 73%.
eIF-2-alpha kinase GCN2, C-terminal kinase domain (EIF2AK4, Homo sapiens, UniProt Q9P2K8, S808G) — remaining binding: 72%.
It gave 87% for remaining binding (KIT (Homo sapiens, UniProt P10721, V559D)).
It gave 100% for remaining binding (PRKAA1 (Homo sapiens, UniProt Q13131)).

Set 3
Compound: CC(C)n1cnc(-c2ccc(F)cc2)c1-c1ncc(C(=O)Nc2ccc(N3CCN(C)CC3)cc2)[nH]1
Method: phase 2a trial
Species: idiopathic pulmonary fibrosis patients
For 30 mg once daily, adverse event grade 2: “patients with gastritis” read 0%.
It gave 0% for “patients with gastritis” (30 mg once daily, adverse event grade 4).
It gave 0% for “patients with gastritis” (30 mg once daily, adverse event grade 5).
The “patients with gastritis” was 0% (dose not given, adverse event grade 1, all dose arms pooled).
The “patients with gastritis” was 0% (30 mg once daily, adverse event grade 3).
The “patients with gastritis” was 0% (dose not given, adverse event grade 3, all dose arms pooled).
For 60 mg once daily, adverse event grade 2: “patients with gastritis” read 0%.

Further values, each from its own experiment
Under “phospho-KNL1 positive cells”, CCCN1C(=O)[C@H](CC(C)C)NC(=O)[C@@H](N(C)C(=O)[C@H](CC2CCC2)NC(=O)[C@@H]2C[C@@H](F)CN2C(=O)[C@@](C)(O)C(F)(F)F)CCCCNC(=O)C2(CC2)NC(=O)[C@@H]1Cc1cc(Cl)ccc1Cl is recorded as 5% and 7.33% and 5.5% (immunohistochemistry; mice, NCI-H69 xenograft, tumour; intravenous, 100 mg/kg once daily, 18 h).

For quick reference, copied from above (set 2):
The remaining binding was 100% (PLK4 (Homo sapiens, UniProt O00444)).
The remaining binding was 73% (ALK (Homo sapiens, UniProt Q9UM73, L1196M)).
For MYLK3 (Homo sapiens, UniProt Q32MK0): remaining binding read 97%.
FLT3 (Homo sapiens, UniProt P36888, F691L/ITD) — remaining binding: 56%.
CAMK1D (Homo sapiens, UniProt Q8IU85) — remaining binding: 100%.
For MAP3K20 (Homo sapiens, UniProt Q9NYL2): remaining binding read 73%.
